Measured values of several laboratories.
± marks the error that the study gave.

With `CCN1CC2(COC)C(O)CC(OC)C34C5CC6(O)C(OC)C(O)C(O)(C5C6OC(=O)c5ccccc5)C(C(OC)C23)C14` (centres unmarked) the Tmax was 55 ± 8.64 min (Sprague-Dawley rat, plasma; oral, dose not given, with H in PCW extract).
With `CC[C@H](C)[C@H](NC(=O)[C@H](Cc1ccc(O)cc1)NC(=O)[C@@H](NC(=O)[C@H](CCCNC(=N)N)NC(=O)[C@@H](N)CC(=O)O)C(C)C)C(=O)N[C@@H](Cc1c[nH]cn1)C(=O)N1CCC[C@H]1C(=O)O` the Tmax was 15 min (LC-MS/MS; Sprague-Dawley rat both sexes, plasma; subcutaneous, 10 mg/kg/day, day 0).
For `O=C(O)/C=C\c1ccc2occc2c1O[C@@H]1O[C@H](CO)[C@@H](O)[C@H](O)[C@H]1O`, the Tmax was 130 ± 69 min (rat, plasma; oral, 217 mg/kg Pc extract, dosed as Pc extract).
With `[2H]c1nc([2H])c(-c2nc([2H])n3c2C([2H])([2H])N=C(c2ccccn2)c2cc(C#C)ccc2-3)o1` the Tmax was ~60 min (Sprague Dawley rat, brain; oral, 2 mg/kg, cassette dosing).
For `CC(C)N1CCCCC1C(=O)NC(Cc1ccc(-c2ccccc2)cc1)B(O)O` (centres unmarked), the tmax was 4.8 min (male Sprague-Dawley rats, plasma; intravenous, 1 mg/kg, citrate ester).
`O=c1cc(-c2ccc(O)cc2)oc2c([C@@H]3OC[C@H](O)[C@H](O)[C@H]3O)c(O)c([C@@H]3O[C@H](CO)[C@@H](O)[C@H](O)[C@H]3O)c(O)c12` gave a Tmax of 60 min (rat; intraperitoneal, 150 mg/kg).
With `COCC12CCC(OC)C34C5CC6(O)C(OC)C(O)C(O)(C5C6OC(=O)c5ccccc5)C(C(OC)C13)C4N(C)C2` (centres unmarked) the Tmax was 35 ± 8.64 min (Sprague-Dawley rat, plasma; oral, dose not given, with H in PCW extract).
The tmax of `CN1CCCCC1C(=O)NC(Cc1ccc(-c2ccccc2)cc1)B(O)O` (centres unmarked) is reported as 4.8 min (male Sprague-Dawley rats, plasma; intravenous, 1 mg/kg, citrate ester).

Excerpt of the above:
With `COCC12CCC(OC)C34C5CC6(O)C(OC)C(O)C(O)(C5C6OC(=O)c5ccccc5)C(C(OC)C13)C4N(C)C2` (centres unmarked) the Tmax was 35 ± 8.64 min (Sprague-Dawley rat, plasma; oral, dose not given, with H in PCW extract).
